Literature values that unrelated publications cite.
Each line is one published result; not all experiments were run side by side. Numbers after ± are the reported error.

O=C(CNc1nc(NCC(=O)NO)nc(-c2ccccc2)n1)NO gave a pKa of 8 to 10 (acid side arm).
With O=C1NC(=O)C(c2ccccc2)(c2ccccc2)N1 the pKa was 8.36 (ionic strength 10 mM).
For COc1cccc(CCc2ccccc2OCC(CN(C)C)OC(=O)CCC(=O)O)c1 (racemic), the pKa was 3.78 (acidic).
N[C@@H](Cc1ccc(O)c(I)c1)C(=O)O has a pKa of 7.9.
For N[C@@H](CS)C(=O)O, the pKa was 8.25.
COc1cc2c(cc1C)nc1c(=O)[nH]c(=O)nc-1n2C[C@H](O)[C@H](O)[C@H](O)COP(=O)(O)O has a pKa of 5.32.
O=c1[nH]c2ccccc2n1CCCN1CCC(n2c(=O)[nH]c3cc(Cl)ccc32)CC1 has a pKa of 8.1 (ionic strength 10 mM).
Cn1ccc(=O)n(C)c1=O has a pKa of 34 ± 2 (temperature dependence of H/D exchange; acetate buffer; C6-H carbon acid).

Excerpt of the above:
Cn1ccc(=O)n(C)c1=O has a pKa of 34 ± 2 (temperature dependence of H/D exchange; acetate buffer; C6-H carbon acid).
